Measured values pooled from the literature.
Each numbered part is a random draw from the data of one study; scales do not carry over between parts. Positions count from the first letter of the parent shown.
Chain of UniProt Q96PY6 (whole entry, looked up): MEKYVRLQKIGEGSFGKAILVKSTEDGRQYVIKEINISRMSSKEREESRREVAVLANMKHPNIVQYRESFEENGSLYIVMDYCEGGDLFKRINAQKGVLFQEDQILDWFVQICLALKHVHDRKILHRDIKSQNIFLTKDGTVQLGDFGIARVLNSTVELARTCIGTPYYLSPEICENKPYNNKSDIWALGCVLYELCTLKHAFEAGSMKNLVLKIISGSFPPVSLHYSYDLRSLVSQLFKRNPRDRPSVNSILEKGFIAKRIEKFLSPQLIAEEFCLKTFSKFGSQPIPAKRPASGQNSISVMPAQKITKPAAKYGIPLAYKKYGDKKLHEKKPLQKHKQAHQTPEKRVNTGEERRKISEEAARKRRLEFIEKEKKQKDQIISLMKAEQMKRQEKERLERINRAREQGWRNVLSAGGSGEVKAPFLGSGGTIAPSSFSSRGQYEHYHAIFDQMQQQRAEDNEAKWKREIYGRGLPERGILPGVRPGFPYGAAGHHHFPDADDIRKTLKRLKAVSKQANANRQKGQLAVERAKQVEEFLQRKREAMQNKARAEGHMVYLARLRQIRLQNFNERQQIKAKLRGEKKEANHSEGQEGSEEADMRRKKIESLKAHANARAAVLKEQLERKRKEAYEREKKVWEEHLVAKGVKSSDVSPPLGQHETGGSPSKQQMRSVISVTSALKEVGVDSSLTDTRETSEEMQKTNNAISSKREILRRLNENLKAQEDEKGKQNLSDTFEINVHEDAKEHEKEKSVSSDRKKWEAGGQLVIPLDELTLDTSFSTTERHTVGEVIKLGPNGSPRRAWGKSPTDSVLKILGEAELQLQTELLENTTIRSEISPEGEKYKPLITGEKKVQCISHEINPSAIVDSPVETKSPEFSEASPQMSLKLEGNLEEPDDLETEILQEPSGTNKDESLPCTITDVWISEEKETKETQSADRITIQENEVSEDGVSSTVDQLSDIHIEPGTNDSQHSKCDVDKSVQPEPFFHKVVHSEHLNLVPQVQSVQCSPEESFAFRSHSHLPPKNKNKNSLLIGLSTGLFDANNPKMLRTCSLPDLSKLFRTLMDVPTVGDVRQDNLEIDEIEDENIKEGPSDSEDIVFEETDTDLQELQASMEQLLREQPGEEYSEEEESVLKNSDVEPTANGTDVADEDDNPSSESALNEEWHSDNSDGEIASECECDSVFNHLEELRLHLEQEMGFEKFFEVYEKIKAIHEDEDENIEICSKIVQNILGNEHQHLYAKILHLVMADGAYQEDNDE
Chain of UniProt P27361 (whole entry, looked up): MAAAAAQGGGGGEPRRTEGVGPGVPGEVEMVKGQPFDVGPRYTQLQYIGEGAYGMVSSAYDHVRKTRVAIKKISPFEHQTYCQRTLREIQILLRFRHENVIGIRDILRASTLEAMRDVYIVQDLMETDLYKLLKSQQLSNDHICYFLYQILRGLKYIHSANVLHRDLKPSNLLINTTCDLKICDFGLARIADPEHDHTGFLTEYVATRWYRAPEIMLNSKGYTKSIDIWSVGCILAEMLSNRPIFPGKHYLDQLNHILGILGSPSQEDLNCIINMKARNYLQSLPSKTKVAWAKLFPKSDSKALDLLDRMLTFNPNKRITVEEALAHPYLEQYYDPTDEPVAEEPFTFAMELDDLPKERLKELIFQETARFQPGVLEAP
Chain of UniProt Q12866 (whole entry, looked up): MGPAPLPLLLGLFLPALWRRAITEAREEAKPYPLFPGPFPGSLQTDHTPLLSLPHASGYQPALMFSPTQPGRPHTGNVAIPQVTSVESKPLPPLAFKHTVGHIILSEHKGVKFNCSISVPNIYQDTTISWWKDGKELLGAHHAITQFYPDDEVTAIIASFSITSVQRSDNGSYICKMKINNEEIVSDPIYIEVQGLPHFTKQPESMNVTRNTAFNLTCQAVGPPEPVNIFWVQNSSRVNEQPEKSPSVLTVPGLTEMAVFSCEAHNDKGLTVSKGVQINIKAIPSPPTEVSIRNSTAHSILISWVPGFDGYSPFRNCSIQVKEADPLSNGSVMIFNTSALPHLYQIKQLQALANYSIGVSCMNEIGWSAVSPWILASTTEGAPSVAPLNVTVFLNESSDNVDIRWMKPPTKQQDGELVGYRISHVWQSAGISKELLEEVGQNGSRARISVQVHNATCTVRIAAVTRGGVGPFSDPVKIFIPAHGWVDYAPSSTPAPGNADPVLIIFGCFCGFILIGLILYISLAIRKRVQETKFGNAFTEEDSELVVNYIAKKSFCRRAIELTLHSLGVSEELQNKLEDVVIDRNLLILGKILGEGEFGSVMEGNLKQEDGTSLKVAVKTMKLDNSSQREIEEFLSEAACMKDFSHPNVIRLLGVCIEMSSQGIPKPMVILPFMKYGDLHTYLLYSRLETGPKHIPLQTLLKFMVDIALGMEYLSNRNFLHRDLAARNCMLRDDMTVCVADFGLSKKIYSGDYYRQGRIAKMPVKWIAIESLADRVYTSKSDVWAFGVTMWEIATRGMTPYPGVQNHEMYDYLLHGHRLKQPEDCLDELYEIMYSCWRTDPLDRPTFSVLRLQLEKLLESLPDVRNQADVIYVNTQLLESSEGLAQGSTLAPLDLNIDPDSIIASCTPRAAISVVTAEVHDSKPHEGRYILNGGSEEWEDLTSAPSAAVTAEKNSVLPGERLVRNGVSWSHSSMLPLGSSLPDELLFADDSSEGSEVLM
Chain of UniProt P42685 (whole entry, looked up): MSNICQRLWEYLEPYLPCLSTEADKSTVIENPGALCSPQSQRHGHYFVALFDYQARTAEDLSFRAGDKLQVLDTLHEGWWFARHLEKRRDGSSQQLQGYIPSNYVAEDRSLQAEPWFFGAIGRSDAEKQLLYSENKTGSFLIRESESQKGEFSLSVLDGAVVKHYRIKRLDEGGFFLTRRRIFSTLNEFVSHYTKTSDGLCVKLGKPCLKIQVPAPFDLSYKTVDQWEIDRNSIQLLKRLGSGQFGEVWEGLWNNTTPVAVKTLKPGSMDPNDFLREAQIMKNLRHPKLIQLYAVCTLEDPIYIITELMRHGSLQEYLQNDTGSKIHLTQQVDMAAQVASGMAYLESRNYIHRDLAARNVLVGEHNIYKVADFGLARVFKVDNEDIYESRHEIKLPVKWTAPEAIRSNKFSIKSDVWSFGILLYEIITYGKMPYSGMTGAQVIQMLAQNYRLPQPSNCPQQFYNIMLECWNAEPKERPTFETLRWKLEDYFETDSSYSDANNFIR
Chain of UniProt Q8IYT8 (whole entry, looked up): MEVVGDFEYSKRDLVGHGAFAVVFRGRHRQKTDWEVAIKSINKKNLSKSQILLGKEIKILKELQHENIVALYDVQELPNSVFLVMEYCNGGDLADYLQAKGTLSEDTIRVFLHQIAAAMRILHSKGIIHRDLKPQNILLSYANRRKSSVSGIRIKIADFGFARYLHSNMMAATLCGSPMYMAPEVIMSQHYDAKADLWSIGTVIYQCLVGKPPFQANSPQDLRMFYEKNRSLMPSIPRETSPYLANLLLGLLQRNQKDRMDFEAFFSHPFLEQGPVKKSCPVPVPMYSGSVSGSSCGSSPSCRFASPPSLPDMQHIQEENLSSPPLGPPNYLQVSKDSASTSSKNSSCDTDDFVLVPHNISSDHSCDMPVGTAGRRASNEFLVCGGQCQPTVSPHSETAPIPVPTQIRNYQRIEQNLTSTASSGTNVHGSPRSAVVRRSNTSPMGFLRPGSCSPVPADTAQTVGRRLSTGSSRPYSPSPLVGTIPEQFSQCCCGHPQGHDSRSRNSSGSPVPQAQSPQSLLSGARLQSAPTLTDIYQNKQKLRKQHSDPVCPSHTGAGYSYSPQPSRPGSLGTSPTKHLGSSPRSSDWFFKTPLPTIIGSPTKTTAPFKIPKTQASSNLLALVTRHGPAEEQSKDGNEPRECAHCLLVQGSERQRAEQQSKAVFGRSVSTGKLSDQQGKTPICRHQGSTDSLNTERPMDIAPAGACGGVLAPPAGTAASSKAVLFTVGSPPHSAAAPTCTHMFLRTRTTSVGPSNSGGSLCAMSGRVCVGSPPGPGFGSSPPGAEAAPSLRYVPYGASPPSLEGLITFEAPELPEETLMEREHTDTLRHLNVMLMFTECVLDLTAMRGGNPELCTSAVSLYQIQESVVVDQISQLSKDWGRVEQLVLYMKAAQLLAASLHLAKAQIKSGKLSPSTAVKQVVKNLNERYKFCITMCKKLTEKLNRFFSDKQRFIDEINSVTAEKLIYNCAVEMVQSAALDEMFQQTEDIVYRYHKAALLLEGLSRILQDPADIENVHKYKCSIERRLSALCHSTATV
Chain of UniProt P49137 (whole entry, looked up): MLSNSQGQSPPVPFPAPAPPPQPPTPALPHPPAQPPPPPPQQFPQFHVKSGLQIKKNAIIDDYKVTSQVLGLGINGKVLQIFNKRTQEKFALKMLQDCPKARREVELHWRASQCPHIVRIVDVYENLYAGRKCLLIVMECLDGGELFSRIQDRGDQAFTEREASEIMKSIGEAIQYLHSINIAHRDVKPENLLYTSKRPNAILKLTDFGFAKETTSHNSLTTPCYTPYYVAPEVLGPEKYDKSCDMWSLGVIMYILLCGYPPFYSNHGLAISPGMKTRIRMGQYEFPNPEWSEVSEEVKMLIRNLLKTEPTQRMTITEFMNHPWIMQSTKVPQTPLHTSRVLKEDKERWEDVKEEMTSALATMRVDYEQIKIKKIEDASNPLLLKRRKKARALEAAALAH

Sample 1 — method: competition protein-binding microarray; form: double-stranded DNA, one strand shown; matrix: in vitro; tested at: 2 µM; together with: Cbf1 competitor, 0.05 µM; reading: higher = stronger binding; measurement: fluorescence intensity; shared flanks, not repeated: … GTCTTGATTCGCTTGACGCTGCTG
Target: Phosphate system positive regulatory protein PHO4, full length, GST-tagged (PHO4, Saccharomyces cerevisiae, UniProt P07270, residues 1-312)
Notes: whole 60-bp probe, lowest competitor level
Target sequence (chain): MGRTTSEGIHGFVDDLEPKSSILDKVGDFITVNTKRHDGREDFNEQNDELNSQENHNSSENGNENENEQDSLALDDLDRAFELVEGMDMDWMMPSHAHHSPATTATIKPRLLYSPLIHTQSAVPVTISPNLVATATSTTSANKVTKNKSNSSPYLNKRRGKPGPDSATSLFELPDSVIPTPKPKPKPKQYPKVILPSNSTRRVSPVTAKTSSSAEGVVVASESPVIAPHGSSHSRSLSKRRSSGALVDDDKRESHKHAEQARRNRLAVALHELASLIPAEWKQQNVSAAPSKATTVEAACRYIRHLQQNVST
Oligonucleotide = GAGACGAATGAAAAGCACGTGAAGTAACAAACTATT; result = 14800 a.u.
Oligonucleotide = CGGCTCCCGCTCGGCCTCGTGACTCCCGCGGAGACC; result = 7650 a.u.
Oligonucleotide = GGTAAAAAGCACAGGCATGTGAATTGCACAGCAGTG; result = 7400 a.u.
Oligonucleotide = TCTCTTTATTAATTACACGTGGTGATGACTCATTGG; result = 19900 a.u.
Oligonucleotide = CATACCCAACCTTGATCTGTGGGTGAAGATATTTGT; result = 4220 a.u.
Oligonucleotide = CATACCCAACCTTGCATAGTGGGTGAAGATATTTGT; result = 5220 a.u.
Oligonucleotide = CGGGGTTAAGTTTGTCACTTCACTTGCTTGCAGCAG; result = 3510 a.u.
Oligonucleotide = TGCGCAACAACTTTTCACGTGCACTTATGTCTAGAA; result = 13400 a.u.

Sample 2 — effect on: binding; method: radioligand binding; tested at: 10 µM; measurement: inhibition
Target: Alpha-2B adrenergic receptor (ADRA2B, Homo sapiens, UniProt P18089)
Chain of UniProt P18089 (whole entry, looked up): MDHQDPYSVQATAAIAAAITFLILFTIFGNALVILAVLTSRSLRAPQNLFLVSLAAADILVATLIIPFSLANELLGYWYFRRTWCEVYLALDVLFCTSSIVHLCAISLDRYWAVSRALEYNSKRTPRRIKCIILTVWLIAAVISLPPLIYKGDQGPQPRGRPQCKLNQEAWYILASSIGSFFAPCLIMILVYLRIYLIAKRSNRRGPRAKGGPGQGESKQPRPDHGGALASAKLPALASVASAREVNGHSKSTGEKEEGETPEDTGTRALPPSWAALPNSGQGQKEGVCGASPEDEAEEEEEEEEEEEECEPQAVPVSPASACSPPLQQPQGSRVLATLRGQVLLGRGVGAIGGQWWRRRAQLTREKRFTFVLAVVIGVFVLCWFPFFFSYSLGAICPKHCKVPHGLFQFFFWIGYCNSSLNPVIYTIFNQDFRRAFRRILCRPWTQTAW
SMILES = Cc1c(N2CCCC2)nc2ccc(Br)cc2c1C(=O)NC[C@H](CCC(=O)O)c1ccccc1Cl; result = -20.9%
SMILES = COCCc1ccc(-c2c(C)nc3c(N4CCOCC4)ccnn23)cn1; result = 78.2%
SMILES = C[C@@]1(Cc2ccc(C#N)cc2)C(=O)N(c2cc(Cl)cc(Cl)c2)c2ncc(C(=O)NC3(c4nc(C5CCC5)no4)CC3)n21; result = 15%
SMILES = CC(=O)Nc1nc(CN2CCC[C@H](Cc3cc(C)nc(C)c3)C2)cs1; result = 59.1%
SMILES = O=C1CCc2cc(Nc3cc(OC4CCOCC4)c([N+](=O)[O-])cc3Cl)ccc2N1; result = -0.04%
SMILES = CNC(=O)Nc1ccc2c(c1)[C@]1(CC2)OC(=O)N(CC(=O)N(Cc2ccc(F)cc2)[C@@H](C)C(F)(F)F)C1=O; result = 10.2%
SMILES = C[C@@H]1CN(c2cc(-c3nn(C)c4ccc(OC5(C)CC5)cc34)ncn2)C[C@H](C)O1; result = 27.2%

Sample 3 — target: CCND1, cyclin fold, Cln2 fusion (human); method: yeast growth competition, sequencing; matrix: yeast; notes: weak parent motif; reference: not given; reading: higher = stronger binding; measurement: normalised enrichment score
Starting sequence: E2F7 docking peptide (human); SSAQRRLEIPSGG
Change = P10A; result = -0.0685
Change = I9A; result = 0.333
Change = G13A; result = 0.203
Change = S11A; result = -0.0244
Change = I9F; result = 3.24
Change = I9L; result = 0.45
Change = R6A; result = -0.337
Change = S1A; result = 0.231

Sample 4 — SMILES: O=C1Nc2ccccc2/C1=C\c1c(Cl)[nH]c2ccccc12; effect on: enzyme activity; mode: inhibitor; tested at: 0.5 µM; reference: control; measurement: remaining activity
target = Macrophage-stimulating protein receptor (MST1R, Homo sapiens, UniProt Q04912); result = 97.5%
target = Rhodopsin kinase GRK7 (GRK7, Homo sapiens, UniProt Q8WTQ7); result = 106%
target = Glycogen synthase kinase-3 beta (GSK3B, Homo sapiens, UniProt P49841); result = 105%
target = Serine/threonine-protein kinase ULK2 (ULK2, Homo sapiens, UniProt Q8IYT8); result = 99.7%
target = Tyrosine-protein kinase Lck (LCK, Homo sapiens, UniProt P06239); result = 95.5%
target = Serine/threonine-protein kinase TAO2 (TAOK2, Homo sapiens, UniProt Q9UL54); result = 104%
target = Activin receptor type-1B (ACVR1B, Homo sapiens, UniProt P36896); result = 105%
target = Mitogen-activated protein kinase kinase kinase 5 (MAP3K5, Homo sapiens, UniProt Q99683); result = 107%
target = Casein kinase I isoform gamma-3 (CSNK1G3, Homo sapiens, UniProt Q9Y6M4); result = 92.8%
target = Ribosomal protein S6 kinase alpha-2 (RPS6KA2, Homo sapiens, UniProt Q15349); result = 81.1%
target = Ephrin type-A receptor 3 (EPHA3, Homo sapiens, UniProt P29320); result = 95%
target = Serine/threonine-protein kinase Nek6 (NEK6, Homo sapiens, UniProt Q9HC98); result = 96.5%
target = Mitogen-activated protein kinase 3 (MAPK3, Homo sapiens, UniProt P27361); result = 109%
target = Tyrosine-protein kinase FRK (FRK, Homo sapiens, UniProt P42685); result = 100%
target = Serine/threonine-protein kinase TBK1 (TBK1, Homo sapiens, UniProt Q9UHD2); result = 95.9%
target = Tyrosine-protein kinase JAK3 (JAK3, Homo sapiens, UniProt P52333); result = 102%
target = Angiopoietin-1 receptor (TEK, Homo sapiens, UniProt Q02763); result = 97.1%
target = Tyrosine-protein kinase Mer (MERTK, Homo sapiens, UniProt Q12866); result = 88.2%
target = Dual specificity mitogen-activated protein kinase kinase 2 (MAP2K2, Homo sapiens, UniProt P36507); result = 98.7%
target = Fibroblast growth factor receptor 1 (FGFR1, Homo sapiens, UniProt P11362); result = 92%
target = MAP kinase-activated protein kinase 2 (MAPKAPK2, Homo sapiens, UniProt P49137); result = 101%
target = Wee1-like protein kinase (WEE1, Homo sapiens, UniProt P30291); result = 107%
target = Mitogen-activated protein kinase kinase kinase 14 (MAP3K14, Homo sapiens, UniProt Q99558); result = 92.6%
target = Serine/threonine-protein kinase Nek1 (NEK1, Homo sapiens, UniProt Q96PY6); result = 96.7%
target = Fibroblast growth factor receptor 3 (FGFR3, Homo sapiens, UniProt P22607); result = 101%

Sample 5 — method: RNA Bind-n-Seq; form: RNA; matrix: in vitro; tested at: 365 nM; reference: no-protein control; reading: higher = stronger binding; measurement: RBNS enrichment (R)
Target: RNA binding protein fox-1 homolog 2, RRM domain, GST-SBP tag (RBFOX2, Homo sapiens, UniProt O43251-10, residues 100-194)
Notes: natural RNA segment, single round, ends assumed
Shared flanks, not repeated: GGGAGUUCUACAGUCCGACGAUC … UGGAAUUCUCGGGUGCCAA
Construct (chain): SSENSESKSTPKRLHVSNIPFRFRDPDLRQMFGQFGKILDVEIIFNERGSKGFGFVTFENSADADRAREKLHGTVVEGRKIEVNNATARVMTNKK
Oligonucleotide = CCUGUCCUGUGCUUGGAUAGUCAGUUGGUUAUUUGUGUAUGAAACAAUGUACAAAUCAAUGUUUUGAAAAUAAUGAUCUCAGACUUUCUAAGUUAAAUUUUAAACAAUUU; result = 0.446
Oligonucleotide = AAAGACAACUGACAUUUAUUGAAUAUCAUGCACUAGUCCCUUACAUAUGUCAUAUUUUAAUUAUAGAAAUCAGUAGCAAAAAGAAUCUUGGGGAUUUUCCAUCUGACUUC; result = 0.696
Oligonucleotide = UUUCUAUAAGAAGAAAAUUAAGACCACUUAUUUGAAAACAAAGAUGAAAUGUCACCACCCGUUUGCGCUCUCAUUCCUUCCAAGCCUGUGACUGGUAUUUUCUCAUGAUG; result = 0.409
Oligonucleotide = UUUUUAACUGAAAGAUUAUUUCUAGAUGGGUAGUGCUUUGUGCUGGUUUCUGCUUCCAUAUAUUUCCCAGUCAUUUUAAUUAGAGAAGAUACUCUAUGGUAGAACUAAGG; result = 0.529
Oligonucleotide = GACUCUACCACUUCCGUGAGCUACUAGUUAGGCAUGGGCAGGAUUAAGUUUUAUGUGUAUUAUCUUCCCACUACCAAGAAUGGUUAUGUUUCACAGAAUACCAGUUCAGU; result = 1.17
Oligonucleotide = CUUGGGAGCGAAGAAGACUAGGCUUUUACUGUUCUCUGAUAUUCUAGAAGCAGACGAUCUCGGGCUCCAAGUAUUUCAGAAUGAUUUAAAAAGUCAUGCCACAGGAAGGG; result = 0.31
Oligonucleotide = ACCGGGUCCACUGUGGAGCAGCCAUCUAUCUACCUGACUCCUGAGCCAGGCUGCCGUGGUGUCAUUUCUGUCAUCCGUGCUCUGUUUCCUUUUGGAGUUUCUUCUCCACA; result = 0.206
Oligonucleotide = CAGCUGCAGCAACUGCAGAUACUGCGGGCUGAGCAGGAGCAGUGGUGGCGCCUGCCCUGAGGCUGCCCUGCGAUGGCCUGGGUGGGAGAGCUGGGUCACCGGUGCCGAUG; result = 0.321

Repeated from above (sample 4):
target = Tyrosine-protein kinase FRK (FRK, Homo sapiens, UniProt P42685); result = 100%
target = Serine/threonine-protein kinase TBK1 (TBK1, Homo sapiens, UniProt Q9UHD2); result = 95.9%
target = Tyrosine-protein kinase JAK3 (JAK3, Homo sapiens, UniProt P52333); result = 102%
target = Angiopoietin-1 receptor (TEK, Homo sapiens, UniProt Q02763); result = 97.1%
target = Tyrosine-protein kinase Mer (MERTK, Homo sapiens, UniProt Q12866); result = 88.2%
target = Dual specificity mitogen-activated protein kinase kinase 2 (MAP2K2, Homo sapiens, UniProt P36507); result = 98.7%
target = Fibroblast growth factor receptor 1 (FGFR1, Homo sapiens, UniProt P11362); result = 92%
target = MAP kinase-activated protein kinase 2 (MAPKAPK2, Homo sapiens, UniProt P49137); result = 101%
